Assay results collected from several papers.
Protocols differ between the studies behind these lines. Numbers after ± are the reported error.

Structure (SMILES) | assay | system | conditions | tissue uptake
CC(F)C(=O)NC[C@@H]1O[C@H](C(=O)N[C@@H](CCC(=O)NCCCC[C@@H]2NC(=O)[C@@H](Cc3ccc(O)cc3)NC(=O)[C@H](CC(=O)O)NC(=O)CNC(=O)[C@H](CCCNC(=N)N)NC2=O)C(=O)NCCCC[C@@H]2NC(=O)[C@@H](Cc3ccc(O)cc3)NC(=O)[C@H](CC(=O)O)NC(=O)CNC(=O)[C@H](CCCNC(=N)N)NC2=O)[C@H](O)[C@H](O)[C@H]1O (stereo partly shown) [fluorine-18 labelled] | small-animal PET | female athymic nude mice, U-87 MG xenograft, muscle | intravenous, 3.7 MBq, 60 min | 0.27 ± 0.07 %ID/g
O=C([O-])CN1CCN(CC(=O)[O-])CCN(CC(=O)[O-])CCN(CC(=O)[O-])CC1.[64Cu+2] |  | healthy athymic nude mice, muscle | intravenous, 24 h | 0.09 %ID/g
N=C(N)NCCC[C@H](NC(=O)[C@@H]1CSSC[C@H](NC(=O)[C@H](Cc2ccc3ccccc3c2)NC(=O)[C@H](CCCNC(=N)N)NC(=O)[C@H](CCCNC(=N)N)NC(=S)Nc2ccc(C[C@H]3CN(CC(=O)O)CCN(CC(=O)O)CCN3CC(=O)O)cc2)C(=O)N[C@@H](Cc2ccc(O)cc2)C(=O)N[C@@H](CCCNC(N)=O)C(=O)N[C@@H](CCCCN)C(=O)N[C@H](CCCCN)C(=O)N2CCC[C@H]2C(=O)N[C@@H](Cc2ccc(O)cc2)C(=O)N[C@@H](CCCNC(=N)N)C(=O)N[C@@H](CCCNC(N)=O)C(=O)N1)C(N)=O [copper-64 labelled] | PET | tumour-bearing mice, liver | 100 µCi, 24 h | 21.2 ± 0.64 %ID/g
O=C([O-])c1cccc(CN(CCN(Cc2cn(Cc3ccccc3)nn2)Cc2cccc(C(=O)[O-])n2)Cc2cn(Cc3ccccc3)nn2)n1.[64Cu+2] |  | healthy athymic nude mice, muscle | intravenous, 1 h | 0.45 %ID/g
CN1C(=O)[C@@H](Cc2ccc(O)c(I)c2)NC(=O)CNC(=O)[C@H](Cc2ccc3ccccc3c2)NC(=O)[C@H](CCCNC(=N)N)NC(=O)[C@H]1CCCNC(=O)c1ccc(CNC(=O)CN2CCN(CC(=O)O)CCN(CC(=O)O)CCN(CC(=O)O)CC2)cc1 [lutetium-177 labelled] | measured: 177Lu radioactivity | female CB-17 SCID mice, Daudi xenograft, brain | intravenous, 0.16 nmol per mouse, 1 h | 0.05 ± 0.01 %ID/g
CCCC[C@H](NC(=O)CNC(=O)CNC(=O)CN1CCN(CC(=O)O)CCN(CC(=O)O)CCN(CC(=O)O)CC1)C(=O)N[C@H]1CC(=O)NCCCC[C@@H](C(N)=O)NC(=O)[C@H](Cc2c[nH]c3ccccc23)NC(=O)[C@H](CCCNC(=N)N)NC(=O)[C@@H](Cc2ccccc2)NC(=O)[C@H](Cc2c[nH]cn2)NC1=O [gallium-67 labelled] |  | female C57 mice, B16/F1 melanoma, kidneys | intravenous, 0.037 MBq, 2 h | 8.9 ± 1.81 %ID/g
N=C(N)NCCC[C@@H]1NC(=O)[C@H](CCCCNC(=O)CON=C[C@H](F)[C@@H](O)[C@H](O)[C@H](O)CO)NC(=O)[C@@H](Cc2ccc(O)cc2)NC(=O)[C@H](CC(=O)O)NC(=O)CNC1=O [fluorine-18 labelled] |  | nude mice U-87 MG tumour, muscle | intravenous, 2 h | 0.13 ± 0.06 %ID/g
CC(F)C(=O)NC[C@@H]1O[C@H](C(=O)NCCCC[C@@H]2NC(=O)[C@@H](Cc3ccc(O)cc3)NC(=O)[C@H](CC(=O)O)NC(=O)CNC(=O)[C@H](CCCNC(=N)N)NC2=O)[C@H](O)[C@H](O)[C@H]1O (stereo partly shown) [fluorine-18 labelled] | small-animal PET | female athymic nude mice, U-87 MG xenograft, muscle | intravenous, 3.7 MBq, 120 min | 0.07 ± 0.01 %ID/g
N=C(N)NCCC[C@H](NC(=O)CON=C[C@H](F)[C@@H](O)[C@H](O)[C@H](O)CO)C(=O)NCC(=O)N[C@@H](CC(=O)O)C(=O)O [fluorine-18 labelled] |  | nude mice U-87 MG tumour, muscle | intravenous, 2 h | 0.09 ± 0.03 %ID/g
N=C(N)NCCC[C@@H]1NC(=O)[C@H](CCCCNC(=O)CC[C@H](NC(=O)[C@H]2O[C@@H](CNC(=O)c3ccc(F)cc3)[C@H](O)[C@@H](O)[C@H]2O)C(=O)NCCCC[C@@H]2NC(=O)[C@@H](Cc3ccc(O)cc3)NC(=O)[C@H](CC(=O)O)NC(=O)CNC(=O)[C@H](CCCNC(=N)N)NC2=O)NC(=O)[C@@H](Cc2ccc(O)cc2)NC(=O)[C@H](CC(=O)O)NC(=O)CNC1=O [fluorine-18 labelled] | small-animal PET | female athymic nude mice, U-87 MG xenograft, liver | intravenous, 3.7 MBq, 60 min | 0.59 ± 0.1 %ID/g
CCCC[C@H](NC(=O)CNC(=O)CNC(=O)CN1CCN(CC(=O)O)CCN(CC(=O)O)CC1)C(=O)N[C@H]1CC(=O)NCCCC[C@@H](C(N)=O)NC(=O)[C@H](Cc2c[nH]c3ccccc23)NC(=O)[C@H](CCCNC(=N)N)NC(=O)[C@@H](Cc2ccccc2)NC(=O)[C@H](Cc2c[nH]cn2)NC1=O [gallium-67 labelled] |  | female C57 mice, B16/F1 melanoma, lung | intravenous, 0.037 MBq, 2 h | 0.54 ± 0.04 %ID/g
CCCC[C@@H]1NC(=O)[C@@H](NC(=O)[C@H](CCC(=O)O)NC(=O)CNC(=O)CN2CCN(CC(=O)O)CCN(CC(=O)O)CCN(CC(=O)O)CC2)CCCCNC(=O)C[C@@H](C(N)=O)NC(=O)[C@H](C(C)C)NC(=O)[C@@H]2CCCN2C(=O)[C@H](CCCNC(=N)N)NC(=O)CNC(=O)[C@H](Cc2c[nH]c3ccccc23)NC(=O)[C@H](CCCNC(=N)N)NC(=O)[C@@H](Cc2ccccc2)NC(=O)[C@H](Cc2c[nH]cn2)NC(=O)[C@H](CCC(=O)O)NC1=O [gallium-67 labelled] |  | C57 mice, B16/F10 lung metastases, blood | intravenous, 0.037 MBq/mouse, 4 h | 0.06 ± 0.04 %ID/g
CCCC[C@H](NC(=O)CN1CCC(NC(=O)CN2CCN(CC(=O)O)CCN(CC(=O)O)CCN(CC(=O)O)CC2)CC1)C(=O)N[C@H]1CC(=O)NCCCC[C@@H](C(N)=O)NC(=O)[C@H](Cc2c[nH]c3ccccc23)NC(=O)[C@H](CCCNC(=N)N)NC(=O)[C@@H](Cc2ccccc2)NC(=O)[C@H](Cc2c[nH]cn2)NC1=O [gallium-68 labelled] |  | male C57BL/6J mice, B16-F10 tumours, heart | intravenous, 1 h, blocking study, added: 100 µg non-radioactive Ga-peptide | 1 ± 0.5 %ID/g
O=C(NCC1OC2CCC=CCCC2O1)c1ccc(COCCOCCOCC[18F])cc1 (stereo not shown) |  | female BALB/c nude mice, brain | intravenous, 60 min | 2.6 ± 0.5 %ID/g
NC12CNCCNCC(NCc3ccc(CNC(=O)CCCC(=O)NCc4ccc(-c5nncnn5)cc4)cc3)(CNCCNC1)CNCCNC2.[64Cu+2] |  | athymic nude mice SW1222 xenograft, liver | 1 h post injection, 24 h accumulation interval, added: huA33-TCO pretargeting | 1.6 ± 0.12 %ID/g
CC(F)C(=O)NCCOCCOCCOCC(=O)N[C@@H](CCC(=O)NCCCC[C@@H]1NC(=O)[C@@H](Cc2ccc(O)cc2)NC(=O)[C@H](CC(=O)O)NC(=O)CNC(=O)[C@H](CCCNC(=N)N)NC1=O)C(=O)NCCCC[C@@H]1NC(=O)[C@@H](Cc2ccc(O)cc2)NC(=O)[C@H](CC(=O)O)NC(=O)CNC(=O)[C@H](CCCNC(=N)N)NC1=O (stereo partly shown) [fluorine-18 labelled] | small-animal PET | female athymic nude mice, U-87 MG xenograft, liver | intravenous, 3.7 MBq, 60 min | 0.63 ± 0.09 %ID/g
O=C([O-])CN1CCN(CC(=O)[O-])CC(Cc2ccc(NC(=S)NCCOCCOCCOCCOCCOCCOCCOCCNC(=O)CCCC(=O)NCc3ccc(-c4nncnn4)cc3)cc2)N(CC(=O)[O-])CC1.[64Cu+2] (stereo not shown) | PET and biodistribution | healthy athymic nude mice, kidney | 4 h | 1.2 ± 0.4 %ID/g
CC(F)C(=O)NC[C@@H]1O[C@H](C(=O)NCCCC[C@@H]2NC(=O)[C@@H](Cc3ccccc3)NC(=O)[C@H](CC(=O)O)NC(=O)CNC(=O)[C@H](CCCNC(=N)N)NC2=O)[C@H](O)[C@H](O)[C@H]1O (stereo partly shown) [fluorine-18 labelled] | small-animal PET | female athymic nude mice, U-87 MG xenograft, muscle | intravenous, 3.7 MBq, 120 min | 0.05 ± 0.01 %ID/g
CCCC[C@H](NC(=O)CNC(=O)CNC(=O)CN1CCN(CC(=O)O)CCN(CC(=O)O)CCN(CC(=O)O)CC1)C(=O)N[C@H]1CC(=O)NCCCC[C@@H](C(N)=O)NC(=O)[C@H](Cc2c[nH]c3ccccc23)NC(=O)[C@H](CCCNC(=N)N)NC(=O)[C@@H](Cc2ccccc2)NC(=O)[C@H](Cc2c[nH]cn2)NC1=O [lead-203 labelled] |  | normal C57 mice, intestine | intravenous, 0.056 MBq, 2 h | 1.43 ± 0.58 %ID

Excerpt of the above:
Structure (SMILES) | assay | system | conditions | tissue uptake
CC(F)C(=O)NCCOCCOCCOCC(=O)N[C@@H](CCC(=O)NCCCC[C@@H]1NC(=O)[C@@H](Cc2ccc(O)cc2)NC(=O)[C@H](CC(=O)O)NC(=O)CNC(=O)[C@H](CCCNC(=N)N)NC1=O)C(=O)NCCCC[C@@H]1NC(=O)[C@@H](Cc2ccc(O)cc2)NC(=O)[C@H](CC(=O)O)NC(=O)CNC(=O)[C@H](CCCNC(=N)N)NC1=O (stereo partly shown) [fluorine-18 labelled] | small-animal PET | female athymic nude mice, U-87 MG xenograft, liver | intravenous, 3.7 MBq, 60 min | 0.63 ± 0.09 %ID/g
O=C([O-])CN1CCN(CC(=O)[O-])CC(Cc2ccc(NC(=S)NCCOCCOCCOCCOCCOCCOCCOCCNC(=O)CCCC(=O)NCc3ccc(-c4nncnn4)cc3)cc2)N(CC(=O)[O-])CC1.[64Cu+2] (stereo not shown) | PET and biodistribution | healthy athymic nude mice, kidney | 4 h | 1.2 ± 0.4 %ID/g
